Experimental data collected from several papers.
“And” joins repeats or separate records; there may be more than shown. ± marks the error that the study gave.
Chain of UniProt P20813 (whole entry, looked up): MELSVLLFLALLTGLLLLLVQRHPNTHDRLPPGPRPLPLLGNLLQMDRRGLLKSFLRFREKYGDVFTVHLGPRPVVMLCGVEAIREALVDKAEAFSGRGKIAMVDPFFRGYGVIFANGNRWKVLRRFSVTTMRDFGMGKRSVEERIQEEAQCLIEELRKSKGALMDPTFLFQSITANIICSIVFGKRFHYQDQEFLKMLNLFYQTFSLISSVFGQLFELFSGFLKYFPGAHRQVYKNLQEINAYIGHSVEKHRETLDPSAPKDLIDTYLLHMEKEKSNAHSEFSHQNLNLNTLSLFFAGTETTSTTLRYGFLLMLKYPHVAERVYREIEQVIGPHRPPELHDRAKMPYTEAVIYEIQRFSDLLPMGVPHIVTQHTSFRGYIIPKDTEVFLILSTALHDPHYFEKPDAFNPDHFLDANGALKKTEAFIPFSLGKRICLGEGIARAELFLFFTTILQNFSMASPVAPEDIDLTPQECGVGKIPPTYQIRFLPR

Structure (SMILES) | target or system | test | test system | conditions | scale | quantity | value
CC(C)OCCOCc1ccc(OCC(O)CN(N=O)C(C)C)cc1 (stereo not shown) | Salmonella typhimurium | Ames test | TA1537 | 500 µg/plate, 30 % hamster S9 | baseline: solvent control | revertant fold increase | 0.8 fold
N#C[C@@H]1CCCN1C(=O)CNC(=O)c1ccnc2ccc(OCCCN3CCN(C(=O)CCc4ccc5c(c4)CN4CCN(Cc6cc(CCC(=O)O)ccc6O)CC(=O)[O][Al-]([18F])([O]C(=O)C4)[O]5)CC3)cc12 (stereo partly shown) | U-87 MG tumour model | – | host not given, intestine | 1 h, tumour-bearing | – | tracer uptake | 13.4 %ID/g
Cc1cc(=O)c2c(O)c3c(O[C@@H]4O[C@H](CO)[C@@H](O)[C@H](O)[C@H]4O)cc(O)cc3cc2o1 | HK-2 co-cultured with HepaRG | MTT | – | 133.33 µM, 48 h | baseline: untreated control | cell viability | 71.1 ± 9.69%
CNC(=O)C1CCCN(C(=O)C2CC3CCC2N3C(=O)[C@@H]2C[C@@H](O)CN2C(=O)NCc2cccc(Cl)c2F)C1 (mixture of isomers) | Cytochrome P450 2B6 (CYP2B6, Homo sapiens, UniProt P20813) | preincubation without NADPH | human | 0.206 µM | baseline: negative control | remaining activity | 105% and 99.9%
COC1CN([C@H]2CC[C@H]([C@@]3(C)Oc4c(Cl)cc(C(=O)NCc5c(SC)cc(C)[nH]c5=O)c(C)c4O3)CC2)C1 | – | RNA-seq, measured: TMEM37 | human, whole blood | dose not given, 24 h | baseline: pretreatment baseline | log2 fold change | 13.4
CNS(=O)(=O)Nc1nccc(Cc2c(C)c3ccc(Oc4ncccc4F)cc3oc2=O)c1F | HGC-27 | cell viability | – | 7 days | – | IC50 | > 1000 nM
Cc1ncsc1-c1ccc(C(C)NC(=O)C2CC(O)CN2C(=O)C(NC(=O)CCCCCCCCCCN2CCCC(Nc3ncc(Cl)c(Nc4ccccc4S(=O)(=O)C(C)C)n3)C2)C(C)(C)C)cc1 (stereo not shown) | 22Rv1 | RNA-seq, measured: PRR15L mRNA | – | concentration not given | baseline: DMSO | log2 fold change | -1.6
CC(C)Cc1ccc(C(C)C(=O)N[C@@H](CCCCNC(=O)CCOCCOCCOCCOCCOCCOCCNC(=O)CN2CCN(CC(=O)[O-])CCN(CC(=O)[O-])CCN(CC(=O)[O-])CC2)C(=O)Nc2cccc3c(C(=O)NCC(=O)N4CC(F)(F)C[C@H]4C#N)ccnc23)cc1.[177Lu+3] (stereo partly shown) | U-87 MG tumour model | – | host not given, bone | 48 h, tumour-bearing | – | tracer uptake | 1.38 %ID/g
COc1cccc(OC)c1-c1cc(C(=O)NC2(C(=O)O)C3CC4CC(C3)CC2C4)nn1-c1ccc(C(=O)N(C)CCOCCOCCN(C)C(=O)[C@H](CCCCNC(=O)[C@H](CC(C)C)NC(=O)C2OC2C(=O)O)NC(=O)CN2CCN(CC(=O)[O-])CCN(CC(=O)[O-])CCN(CC(=O)[O-])CC2)cc1C(C)C.[177Lu+3] (mixture of isomers) | HT-29 tumour model | – | host not given, blood | 72 h, tumour-bearing | – | tracer uptake | 0.13 %ID/g
CCN(CC)CC#CCNc1ccnc2cc(Cl)ccc12 | Salmonella typhimurium | mini-Ames test | TA100 | 125.0 µg/well, with rat liver S9 | – | revertants | 25 revertants/well and 22 revertants/well
CCCCCCC(CSS(=O)(=O)O)NC(C)C (stereo not shown) | Schistosoma mansoni | perfusion day 57 | infected Swiss Webster mice | 100 mg/kg | – | body weight | 35 g and 31.9 g and 34.7 g
Nc1ncc(-c2cc(-c3cnn(CC(F)(F)F)c3)ncc2F)nc1C(=O)NC1CNCC(F)C1 (stereo not shown) | GSK3B | KINOMEscan | – | 1 µM | baseline: DMSO control | remaining binding | 100%
CN1CCCNC(=O)c2cccc(c2)C(=O)NCCCN(C)CCCNc2cccc3c2C(=O)c2cccc(c2C3=O)NCCC1 | HEK293 | cell growth or viability, CCK-8 | – | 1.5 µM, 48 h | – | viability | 43.8%
O=C1C2CC3CC1CC(C(=O)N1CCN(c4ccc([N+](=O)[O-])c5ncccc45)CC1)(C3)C2 | Salmonella typhimurium | Ames test | TA1535 | 0.31 µg/well, with S9 | baseline: vehicle | revertant fold increase | 1.8
C=C1CC[C@H](OCCCNC(=O)CCOCCOCCOCCOCCOCCOCCOCCOCCOCCOCCOCCOCCOCCOCCOCCOCCOCCOCCOCCOCCOCCOCCOCCOCCOCCOCCOCCOCCOCCOCCOCCOCCOCCOCCOCCOCCNC(=O)CCN2C(=O)CC(SC[C@H](NC(=O)[C@H](Cc3ccccc3)NC(=O)[C@H](CC(N)=O)NC(=O)[C@H](Cc3c[nH]cn3)NC(=O)[C@@H](NC(=O)[C@H](CC(=O)O)NC(=O)[C@H](CCC(N)=O)NC(=O)[C@H](CC(C)C)NC(=O)[C@H](CCCCN)NC(=O)[C@H](CCCCN)NC(=O)[C@H](CCCNC(=N)N)NC(=O)[C@H](CC(C)C)NC(=O)[C@H](Cc3c[nH]c4ccccc34)NC(=O)[C@H](CCC(=O)O)NC(=O)[C@@H](NC(=O)[C@H](CCCNC(=N)N)NC(=O)[C@H](CCC(=O)O)NC(=O)[C@H](CCSC)NC(=O)[C@H](CO)NC(=O)[C@H](CC(N)=O)NC(=O)[C@H](CC(C)C)NC(=O)[C@H](Cc3c[nH]cn3)NC(=O)[C@H](CCCCN)NC(=O)CNC(=O)[C@H](CC(C)C)NC(=O)[C@H](CC(N)=O)NC(=O)[C@H](Cc3c[nH]cn3)NC(=O)[C@H](CCSC)NC(=O)[C@H](CC(C)C)NC(=O)[C@H](CCC(N)=O)NC(=O)[C@@H](NC(=O)[C@H](CCC(=O)O)NC(=O)[C@H](CO)NC(=O)[C@@H](NC(=O)[C@@H](N)CO)C(C)C)[C@@H](C)CC)C(C)C)C(C)C)C(=O)O)C2=O)C/C1=C/C=C1\CCC[C@]2(C)[C@@H]([C@H](C)CCCC(C)(C)O)CC[C@@H]12 (stereo partly shown) | – | – | male Sprague-Dawley rat, plasma | subcutaneous, 300 µg/kg, single dose | – | AUC(0-t) | 1270 ng·h/mL
CCCC[C@H](NC(=O)COCCOCCNC(=O)CN1CCN(CC(=O)O)CCN(CC(=O)O)CC1)C(=O)N[C@H]1CC(=O)NCCCC[C@@H](C(N)=O)NC(=O)[C@H](Cc2c[nH]c3ccccc23)NC(=O)[C@H](CCCNC(=N)N)NC(=O)[C@@H](Cc2ccccc2)NC(=O)[C@H](Cc2c[nH]cn2)NC1=O [technetium-99m labelled] | – | – | C57 mouse, intestine | intravenous, 0.037 MBq, 2 h | – | tissue uptake | 4.51 ± 0.93 %ID
O=C1NC2(CC2)COc2ncc(F)cc2[C@H]2COCCN2c2ccn3ncc1c3n2 | CHL cells | chromosomal aberration test | – | 5 µg/mL, 24 h, without S9 mix | – | cells with structural aberrations | 1%
CC[C@H](C)NCC(SS(=O)(=O)O)c1ccccc1 (stereo partly shown) | Schistosoma mansoni | perfusion day 57 | infected Swiss Webster mice | 100 mg/kg | – | body weight | 33.2 g and 34.5 g and 31 g
COC(=O)Nc1nc2cc(C(O)c3ccc(F)cc3)ccc2[nH]1 (stereo not shown) | Salmonella typhimurium | Ames preincubation test | TA98 | 437.5 µg/plate, without S9 | – | revertants | 19.7 revertants/plate
